# Results pooled from the literature.
# A part holds a random share of what one study measured.

# Series 1
# Target: Interferon regulatory factor 5, full length, phosphomimetic (IRF5, Homo sapiens, UniProt Q13568-2, residues 1-514, S451D/S453D/S456D/S462D)
# Method: protein-binding microarray
# Form: double-stranded DNA, one strand shown
# Matrix: in vitro
# Tested at: 940 nM top
# Notes: 60-bp whole probe
# With: salmon DNA 0.4 mg/ml
# Reference: random background probes
# Reading: higher = stronger binding
# Shared flanks, not repeated: GCCTAGCAC … GTCTTGATTCGCTTGACGCTGCTG
Sequence,fitted relative affinity [z-score]
GACGAACTGGGGTTTCGCGACGTGCTA,0.455
GACGATCTCAGTTTGGAGACGTGCTAG,0.242
GACGGGTTCGGGACTGGGGACGTGCTA,-0.254
TCAACTAGGGAATTTAGAACTGTGCTA,-0.191
CTGTACTTGAATTCTGCAAAGTGCTAG,-0.127
CGCTCCCTTTATTCCACATTGTGCTAG,1.14
TTAGAACTGAGCCTGGATTAGTGCTAG,-0.681
ATAGGTTTCGGTCTCGGTTAGTGCTAG,14.3
GACGGTATCGGCCTCGGGACGTGCTAG,4.02
GACGGTTTCCTTTCCTTGACGTGCTAG,1.77
TATGTTCCTTATTTAAGACCGTGCTAG,0.339
GACGGTTTCCTTATCCTGAAGTGCTAG,1.4
TTAGGACTGGGGTACCGGTTAGTGCTA,0.0351
TTAGGTATCGGGACTGGGTTCGTGCTA,4.29
TTAAAACTGGGGACTGGATTAGTGCTA,-0.0386
TTAGTTTTCCTTCTCCTTTAGTGCTAG,2.34
TTAGGTCTCGGTCTCGGATAGTGCTAG,4.99
GACGGTATCGACTTCCGGGACGTGCTA,4.8
TTAGGTATCAGTATCGGTTAGTGCTAG,6.72
TCAGAACTGAGTATCGATTAGTGCTAG,4.25
GGAAATATTTACCTCTCACGGTGCTAG,0.041
TGGAACCAGCGAACGAGCGGGTGCTAG,-0.522
TTAGGTATCCTTTTCATTTAGTGCTAG,0.915
TGCATTCCCTTTCTCAACCTGTGCTAG,1.36
TCTACTTCTCTTTTTGCTTTGTGCTAG,1.79

# Series 2
# Target: RNA binding protein fox-1 homolog 2, RRM domain, GST-SBP tag (RBFOX2, Homo sapiens, UniProt O43251-10, residues 100-194)
# Method: RNA Bind-n-Seq
# Form: RNA
# Matrix: in vitro
# Tested at: 365 nM
# Notes: natural RNA segment, single round, ends assumed
# Reference: no-protein control
# Reading: higher = stronger binding
# Shared flanks, not repeated: GGGAGUUCUACAGUCCGACGAUC … UGGAAUUCUCGGGUGCCAA
# Residues (chain): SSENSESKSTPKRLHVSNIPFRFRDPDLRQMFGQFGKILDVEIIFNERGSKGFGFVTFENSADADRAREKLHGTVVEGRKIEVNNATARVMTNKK
Sequence,RBNS enrichment (R)
AGCCCCCAGGAAGCCUGCUCCCCUCUCUGGCCCAUGGUCCUGCUUCAUGCUUUGGGUCAGGAGGCCAAAGCUGAUGUUCAGGCCCCACCCACUCCCUACAGUCCUCAGAC,0.369
UCAUAUUCUUCGCUUGGCAGUGUGUAUUCUUUUCACAAGUUUGCCUAGUGUCUUGGUUUACACAAUAUGACAACUGUAACUGUACUUUAGCUAUUGUUUGCCUGCACAUA,2.57
CCUGCCCGUGGUGAGCUCAGCCAAGACUUGGCUCUCCAUGUUCCAGCCUCCGUCUGUGACUGGGUGGGUAAGUUCGGUGGGCCCCACCCAGUGGGCUCGGCAGCCGUCAC,0.534
CAUAAGUCCAUUUGGCCAAGUCAGCCUGUGUGCUACUGAACUGUCAAGAGAUUGCCACUCUCAUAGGUAAACAUGAGGAAAACAGGAAAAGUUUGCUUCUUUUUAUUGAU,0.251
AUACAUGACAUUCUUUGGGAAUUUGGUGGCCACUGCUUCAGUCACCUCUGUUUUUCUGAAGGCUGUUCCAGCAGGGCUGCCCUGUUCAUCAGCGGAUGUUCACUCUGGCC,0.262
CACCUGCACACACGCCCUGGCACACAUACACACAUGCGUGCAGGCUUGUGCAGACACUCAGGGAUGGAGCUGCUGCUGAAGGGACUUGUAGGGAGAGGCUCGUCAACAAG,0.682
GUAUGGCUGGGAAAUGGACUUAAGGCUUGGGCUUGAAUUGGUGGCUCCUACCUGUGAGGUCCCAUCGUGAGUCACUGGGAUUUGUGUUGCAUGGAAGGCAGUCUUUCCUG,2.23
UUCAAGGCUCUCCUAUAGGGAGAAACAUGGCCAAAAAGACAGGAAGAACUGUGGCUUGUAACUCAAUGAUGCUAUAACUCCAGCACUGGAUCUUAAGUAUUCUGGAAUAU,0.793
ACCGGGGUGAGAAGGUCAUCCUUUUUCAGUACUAACGCUGCCGGCACUUCCGCAUCUGCCCGUGGGCGCCCCACAGCUGCCCCUCAGCCGCUGAGAUCCAGUGUCCAAGC,0.502
UUGGACCCUGAAACAGAACAGGUGAAUGGAUUAUUCUAACAGGUCACCAUCCAUCUUCAAGAAGCUACUUUGAAAGUCUGGCCAGUGUCUAUUCAGGCCCACUGGGAGUU,0.333
AUCAGGAAUUUUGUCCGUGUAUAAGGGGUUCUAAGUUUCAAAGCUUGUUCAGUGUGAUGGAAUAACAAGAUGAAUUAUUGGUGAUUUUUCAUAAUCGAUGUGGUCUACUA,0.546
GGCUUACGCAAAAGGUCACCAUUUGAGGUCCUGCCUUACUAAUUAUGUGCUGCCCAACAACUAAAUUUGUAAUUUGUUUUUCUCUAGUUUGAGCAGGGUCUGAAUUUUUU,0.492

# Series 3
# Target: Fragile X messenger ribonucleoprotein 1, C-terminal low-complexity region (Fmr1, Mus musculus, UniProt P35922)
# Method: RNA Bind-n-Seq
# Form: RNA
# Matrix: in vitro
# Tested at: 200 nM
# Notes: whole 134-nt RNA, ends assumed
# With: 150 mM LiCl
# Reference: input library
# Reading: higher = stronger binding
# Each molecule: 7-deaza-guanosine replaces G
# Shared flanks, not repeated: GGGAGUUCUACAGUCCGACGAUC … UGGAAUUCUCGGGUGUCAAGG
Sequence,log2 enrichment
CACAGACAACACGCACCCACACAGACACAGGGGGAAGGGGUUGGGAUGGGGACAGGGUGCACAGCAGGGCGGGGUAGGACCCCAGCCCCU,0.388
GCAGGAAGUAAAAACAAAUGGAAAUGCUUCGGAUAGUGGCAGGGGUGGGGGUUGCUAAGGAAAGGGUGGGAUGGGCGUGGGUAAAGAGUU,1.23
AAGUCCUGUGCUACACAUCGUAUGUACCGAAUCGGUUUUUUUGGUUUGGUUUUUGGAAAGUAUUAUGUUACGCCGUUCGGAUCUGCACUU,-2.91
GCAGGAAGUAAAAACAAAUGGAAAUGCUUCGGAUAGUGGCAGGGGUGGGGGUUGCUAAGGAAAGGGUGGGAUGUGAGUGGGUAAAGAGUU,1.34
CAAGUCCUGUGCUACACAUCGUAUGUACCGAAUCGGGAAAGGGAAAGGGUUUGGGAAAGUAUUAUGUUACGCCGUUCGGAUCUGCACUUC,-1.67
UCCUCAAGUCCUGUGCUACACAUCGUAUGUACCGAAUCGGGUGGUGGGUGGGAAAGUAUUAUGUUACGCCGUUCGGAUCUGCACUUCCAG,0.787
CACAGACAACCCGCACCCACACAGACACAGAGGGAAGGGGUUGGGAUGGGGACAGGGUGCACAGCAGGGCGGGGUAGGACCCCAGCCCCU,-0.975
CAAGUCCUGUGCUACACAUCGUAUGUACCGAAUCGGUGGAAAAAAAGGAAAAAGGAAAGUAUUAUGUUACGCCGUUCGGAUCUGCACUUC,-1.17
UCCUGUGCUACACAUCGUAUGUACCGAAUCGGGAAAAAAAGGGAAAAAAAGGGUUUGGGAAAGUAUUAUGUUACGCCGUUCGGAUCUGCA,-1.9
CCUCAAGUCCUGUGCUACACAUCGUAUGUACCGAAUCGGAGGGAGGGAGGGGAAAGUAUUAUGUUACGCCGUUCGGAUCUGCACUUCCAG,-1.21
UACCUUUAGAGGAGGAUCUGAUGGAUAUGGCAGUGGACGUGGAUUUGGGGAUGGCUAUAAUGGGUAUGGAGGAGGACCUGGAGGUGGCAA,0.227

# Series 4
# Target: Transcriptional repressor CTCF (CTCF, Homo sapiens, UniProt P49711, residues 1-727, full length assumed)
# Method: protein-binding microarray
# Form: double-stranded DNA, one strand shown
# Matrix: in vitro
# Tested at: not given
# Notes: k-mer, scored over probes, only values ≥0.25
# Reading: higher = stronger binding
# Construct (chain): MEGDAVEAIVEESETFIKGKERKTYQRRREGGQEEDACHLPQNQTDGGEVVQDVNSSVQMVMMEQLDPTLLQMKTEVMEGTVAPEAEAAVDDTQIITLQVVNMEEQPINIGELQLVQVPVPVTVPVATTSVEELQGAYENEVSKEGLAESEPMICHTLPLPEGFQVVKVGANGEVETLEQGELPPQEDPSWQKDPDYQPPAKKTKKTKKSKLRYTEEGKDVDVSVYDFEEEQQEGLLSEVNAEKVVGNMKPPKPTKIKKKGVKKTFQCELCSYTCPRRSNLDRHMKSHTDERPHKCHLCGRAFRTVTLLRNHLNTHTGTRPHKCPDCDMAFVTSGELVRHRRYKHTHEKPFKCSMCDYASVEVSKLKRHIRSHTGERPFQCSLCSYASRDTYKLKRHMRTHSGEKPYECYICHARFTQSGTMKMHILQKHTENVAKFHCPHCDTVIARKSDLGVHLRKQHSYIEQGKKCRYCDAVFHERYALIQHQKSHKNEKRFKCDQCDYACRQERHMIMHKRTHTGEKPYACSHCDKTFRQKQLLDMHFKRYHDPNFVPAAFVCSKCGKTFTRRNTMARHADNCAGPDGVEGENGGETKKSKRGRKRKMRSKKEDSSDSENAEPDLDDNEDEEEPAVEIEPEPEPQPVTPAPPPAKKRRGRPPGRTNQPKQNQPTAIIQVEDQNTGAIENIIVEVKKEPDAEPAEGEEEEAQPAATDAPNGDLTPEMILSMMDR
Sequence,E-score
ATAGTATA,0.267
TATGAATA,0.256
TTATATAA,0.396
AAAGTATT,0.287
GATTTATA,0.272
ATAATTAC,0.324
GAATATAC,0.254
TATAAGCA,0.286
ATAACATA,0.364
ATAAACGC,0.258
ACCACATA,0.263
ATTGTATA,0.317
ATCATATA,0.251
ATACTCAT,0.303
AGGAATAT,0.267
AATTATCA,0.338
TAACTATA,0.264
TGTGGTAA,0.261
CGCGCTAC,0.279
AAATAGTA,0.251
TACATATA,0.35

# Repeated from above (series 3):
Sequence,log2 enrichment
GCAGGAAGUAAAAACAAAUGGAAAUGCUUCGGAUAGUGGCAGGGGUGGGGGUUGCUAAGGAAAGGGUGGGAUGUGAGUGGGUAAAGAGUU,1.34
CAAGUCCUGUGCUACACAUCGUAUGUACCGAAUCGGGAAAGGGAAAGGGUUUGGGAAAGUAUUAUGUUACGCCGUUCGGAUCUGCACUUC,-1.67
UCCUCAAGUCCUGUGCUACACAUCGUAUGUACCGAAUCGGGUGGUGGGUGGGAAAGUAUUAUGUUACGCCGUUCGGAUCUGCACUUCCAG,0.787
CACAGACAACCCGCACCCACACAGACACAGAGGGAAGGGGUUGGGAUGGGGACAGGGUGCACAGCAGGGCGGGGUAGGACCCCAGCCCCU,-0.975
CAAGUCCUGUGCUACACAUCGUAUGUACCGAAUCGGUGGAAAAAAAGGAAAAAGGAAAGUAUUAUGUUACGCCGUUCGGAUCUGCACUUC,-1.17
UCCUGUGCUACACAUCGUAUGUACCGAAUCGGGAAAAAAAGGGAAAAAAAGGGUUUGGGAAAGUAUUAUGUUACGCCGUUCGGAUCUGCA,-1.9
CCUCAAGUCCUGUGCUACACAUCGUAUGUACCGAAUCGGAGGGAGGGAGGGGAAAGUAUUAUGUUACGCCGUUCGGAUCUGCACUUCCAG,-1.21
